Earlier results that unrelated publications cite.
Lines come from different studies, so protocols differ. ± marks the error that the study gave.
UniProt Q92772, sequence (whole entry, looked up): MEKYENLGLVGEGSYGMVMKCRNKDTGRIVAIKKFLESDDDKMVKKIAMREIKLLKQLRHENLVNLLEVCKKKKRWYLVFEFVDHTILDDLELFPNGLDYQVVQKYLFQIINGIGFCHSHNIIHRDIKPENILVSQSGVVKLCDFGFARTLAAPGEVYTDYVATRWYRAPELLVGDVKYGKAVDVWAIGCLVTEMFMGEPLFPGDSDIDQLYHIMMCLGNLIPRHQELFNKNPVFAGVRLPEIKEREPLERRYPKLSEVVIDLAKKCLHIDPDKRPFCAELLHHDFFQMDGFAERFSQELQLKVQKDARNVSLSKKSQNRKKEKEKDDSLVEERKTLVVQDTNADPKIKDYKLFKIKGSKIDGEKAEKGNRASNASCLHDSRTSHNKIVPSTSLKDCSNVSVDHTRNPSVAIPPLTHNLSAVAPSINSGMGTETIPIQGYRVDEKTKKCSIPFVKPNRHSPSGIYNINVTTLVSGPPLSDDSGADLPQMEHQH

The IC50 of `Oc1ccc(/C=C/c2cc(O)cc(O)c2)cc1` is reported as 2700 nM (lipoxygenase).
`CC1(C)S[C@@H]2[C@H](NC(=O)[C@H](N)c3ccccc3)C(=O)N2[C@H]1C(=O)O` has an MIC of greater than 16 µg/mL (Acinetobacter baumannii; clinical isolate RKI-No_16/15).
For `CCN(CC)C(=S)SSC(=S)N(CC)CC`, the IC50 was 410 nM (NLRP3 inflammasome; THP-1; together with: LPS and nigericin).
The IC50 of `CC(C)=CCC/C(C)=C/CNCCNC1C2CC3CC(C2)CC1C3` (stereo not drawn) is reported as no less than 50000 nM (Mycobacterium tuberculosis cis-decaprenyl diphosphate synthase; enzyme activity, inhibitor).
The IC50 of `CCOC(=O)C1=C(C)NC(C)=C(C(=O)OC)C1c1cccc(Cl)c1Cl` (stereo not drawn) is reported as 0.15 nM (L-type calcium channel).
`COc1cccc(-c2cc(F)ccc2[C@H]2Cc3nc(N)nc(C)c3C(=O)N2)n1` gave an IC50 of 8.5 nM (Grp94).
`O=c1c(O)c(-c2ccc(O)c(O)c2)oc2cc(O)cc(O)c12` gave an IC50 of 22700 ± 2300 nM (dengue virus 3 NS2B-NS3 protease; enzyme activity, inhibitor; pH 9.0).
With `C=C1C(=O)[C@]23[C@H](O)[C@H]1CC[C@H]2[C@@]12CO[C@]3(O)[C@@H](O)[C@@H]1C(C)(C)CC[C@@H]2O` the IC50 was 5200 nM (NLRP3 inflammasome; THP-1; together with: LPS and ATP).
Under IC50, `Nc1ccccc1NC(=O)c1ccc(CNc2nccc(-c3cccnc3)n2)cc1` is recorded as “inactive” (HDAC6; enzyme activity, inhibitor).
`CCN(CC)CCOC(=O)c1ccc(N)cc1` gave an IC50 of 45500 nM (nAChR; inhibitor).
The IC50 of `c1cc(OCCN2CCCCC2)cc(-c2n[nH]c3ccc(-c4nc[nH]n4)cc23)c1` is reported as 282 nM (CSNK1G1; kinase activity, inhibitor).
With `CNCCN(C)Cc1c[nH]nc1C1CCC2(CC1)CC(C)(C)CO2` (stereo not drawn) the IC50 was 5.7 nM (PRMT6).
`COc1cc2c(Nc3ccc(Cl)c(Cl)c3F)ncnc2cc1OC[C@@H]1C[C@@H]2CN(C)C[C@@H]2C1` gave an IC50 of 1.5 nM (VEGFR2).
`CCN(CC)CCCCNc1ncc2cc(-c3cc(OC)cc(OC)c3)c(NC(=O)NC(C)(C)C)nc2n1` has an IC50 of greater than 50000 nM (PKC; inhibitor).
The IC50 of `Nc1ncnc2c1ncn2[C@@H]1O[C@H](COP(=O)(O)OP(=O)(O)OP(=O)(O)O)[C@@H](O)[C@H]1O` is reported as 20 to 60 nM (PKA catalytic subunit; inhibitor).
With `CN1CCN(c2ccc3nc(-c4c(N)c5c(F)cccc5[nH]c4=O)[nH]c3c2)CC1` the IC50 was greater than 25000 nM (Raf; inhibitor).
`COc1cc(N2CCC3(CCN(C)CC3)CC2)ccc1Nc1ncc(Cl)c(Nc2ccccc2P(C)(C)=O)n1` gave an IC50 of 36 nM (ALK L1196M).
`Cc1cc(Cc2cc(C)cc(C(C)(C)C)c2O)c(O)c(C(C)(C)C)c1` gave an IC50 of 700 nM (SERCA, rat skeletal muscle; inhibitor).
`Fc1ccc([C@@H]2CCNC[C@H]2COc2ccc3c(c2)OCO3)cc1` gave an IC50 of 30000 nM (P-glycoprotein).
`CC/C(=C(\c1ccc(O)cc1)c1ccc(OCCN(C)C)cc1)c1ccccc1` gave an IC50 of less than 270 nM (estrogen receptor alpha, human; reporter gene, inhibitor; human breast cancer cells).
For `Nc1cc(C(F)(F)F)c(-c2nc(N3CCOCC3)nc(N3CCOCC3)n2)cn1`, the remaining activity was 100% (CDKL2 (Homo sapiens, UniProt Q92772); enzyme activity; 10 µM; relative to: untreated).
The IC50 of `CN(CCN)Cc1csc(-c2ccc(C(=N)N)nc2)n1` is reported as 5710 nM (PRMT8).
The IC50 of `CN1C(C(=O)Nc2ccccn2)=C(O)c2sc(Cl)cc2S1(=O)=O` is reported as 9000 ± 6000 nM (NR4A1 (Nur77); inverse agonist, cellular).
`CNC(C)C1CCC(N)C(OC2C(N)CC(N)C(OC3OCC(C)(O)C(NC)C3O)C2O)O1` (stereo not drawn) gave an MIC of greater than 8 µg/mL (Acinetobacter baumannii; clinical isolate RKI-No_19/09).
With `Nc1nc(N)c2[nH]c(-c3ccccc3)nc2n1` the IC50 was 924 nM (CSNK1G1; kinase activity, inhibitor).
With `Nc1nc2cc(-c3ccc4ncc(C(=O)N5CCOCC5)n4c3)ccc2o1` the IC50 was 21 nM (PI3Kα; enzyme activity).
For `O=C(O)/C=C/c1ccc2c(-c3ccccc3)onc2c1`, the IC50 was 43800 nM (IP6K2).
`N=C(N)c1ccc(OCCCCCCOc2ccc(C(=N)N)cc2)cc1` has an IC50 of 357000 nM (PRMT5).
`O=C(c1cccnc1-c1ccncc1)N1CCC(O)(Cc2ccccc2)CC1` has an IC50 of 4.5 nM (human cholesterol 24-hydroxylase; enzyme activity, inhibitor).
The IC50 of `CC(C)CC(=O)Nc1[nH]nc2c1CN(C(=O)C1CCN(C)CC1)C2(C)C` is reported as 10 nM (human CDK7/cyclin H; kinase activity, inhibitor).
`Nc1ncnc2c1ncn2[C@@H]1O[C@H](COP(=O)(O)CP(=O)(O)OP(=O)(O)O)[C@@H](O)[C@H]1O` gave an IC50 of 82 nM (P2X receptor; radioligand binding).
`Cc1c[nH]c(/C=C2\C(=O)Nc3ccccc32)c1CCC(=O)O`: IC50 “no inhibition” (insulin receptor; inhibitor).
For `Nn1cnc2scc(-c3ccc(Cc4ccccc4)cc3)c2c1=O`, the IC50 was 19100 nM (β-arrestin 1).
`COc1ccc(-c2ccc3ncc4c(c3c2)n(-c2ccc(N3CCNCC3)c(C(F)(F)F)c2)c(=O)n4C)cn1` gave an IC50 of 63 nM (PI3K beta).
`CCC(=O)NS(=O)(=O)c1ccc(-c2c(-c3ccccc3)noc2C)cc1` gave an IC50 of 23700 ± 100 nM (NR4A1 (Nur77); inverse agonist, cellular).
`CC[C@@H]1C(=O)N(C)c2cnc(Nc3ccc(C(=O)N[C@H]4CC[C@H](N5CCN(CC6CC6)CC5)CC4)cc3OC)nc2N1C(C)C` gave an IC50 of 56 nM (PLK3; inhibitor).
With `CC(=O)N1c2ccc(-c3ccc(C(=O)O)cc3)cc2[C@H](Nc2ccc(Cl)cc2)C[C@@H]1C` the IC50 was 31 nM (BRD3; inhibitor).
`CCOCC1(COCC)CCC(c2n[nH]cc2CN(C)CCNC)CC1` has an IC50 of 3.9 nM (PRMT8).
`CNS(=O)(=O)Nc1nccc(Cc2c(C)c3ccc(Oc4ncccn4)cc3oc2=O)c1F` has an IC50 of 8.2 nM (BRAF V600E; kinase activity, inhibitor).

Excerpt of the above:
The IC50 of `CN(CCN)Cc1csc(-c2ccc(C(=N)N)nc2)n1` is reported as 5710 nM (PRMT8).
For `Nc1cc(C(F)(F)F)c(-c2nc(N3CCOCC3)nc(N3CCOCC3)n2)cn1`, the remaining activity was 100% (CDKL2 (Homo sapiens, UniProt Q92772); enzyme activity; 10 µM; relative to: untreated).
With `CC(=O)N1c2ccc(-c3ccc(C(=O)O)cc3)cc2[C@H](Nc2ccc(Cl)cc2)C[C@@H]1C` the IC50 was 31 nM (BRD3; inhibitor).
`Nc1ncnc2c1ncn2[C@@H]1O[C@H](COP(=O)(O)CP(=O)(O)OP(=O)(O)O)[C@@H](O)[C@H]1O` gave an IC50 of 82 nM (P2X receptor; radioligand binding).
`CCC(=O)NS(=O)(=O)c1ccc(-c2c(-c3ccccc3)noc2C)cc1` gave an IC50 of 23700 ± 100 nM (NR4A1 (Nur77); inverse agonist, cellular).
